Assay results pooled from the literature.
Each line is one published result; not all experiments were run side by side.
U2AF2: U2AF2 148-342 (Homo sapiens, UniProt P26368)
UniProt P26368, sequence (whole entry, looked up): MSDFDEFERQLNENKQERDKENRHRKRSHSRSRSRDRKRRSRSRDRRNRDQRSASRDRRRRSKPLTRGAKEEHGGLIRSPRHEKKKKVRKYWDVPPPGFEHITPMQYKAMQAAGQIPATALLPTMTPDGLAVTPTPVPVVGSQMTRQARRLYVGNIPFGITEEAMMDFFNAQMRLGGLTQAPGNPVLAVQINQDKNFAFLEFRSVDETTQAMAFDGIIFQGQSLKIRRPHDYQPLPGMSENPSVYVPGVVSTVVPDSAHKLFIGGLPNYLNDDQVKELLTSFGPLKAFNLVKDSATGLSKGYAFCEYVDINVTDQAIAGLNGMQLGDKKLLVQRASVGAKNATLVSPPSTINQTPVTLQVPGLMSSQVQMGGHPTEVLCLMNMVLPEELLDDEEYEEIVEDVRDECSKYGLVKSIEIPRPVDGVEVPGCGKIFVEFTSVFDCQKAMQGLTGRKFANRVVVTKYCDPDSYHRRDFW
B1: EndoA D265A (Drosophila melanogaster, UniProt Q8T390); sequence looked up; chain MAFAGLKKQINKANQYMTEKMGGAEGTKLDMDFMEMERKTDVTVELVEELQLKTKEFLQPNPTARAKMAAVKGISKLSGQAKSNTYPQPEGLLAECMLTYGKKLGEDNSVFAQALVEFGEALKQMADVKYSLDDNIKQNFLEPLHHMQTKDLKEVMHHRKKLQGRRLDFDCKRRRQAKDDEIRGAEDKFGESLQLAQVGMFNLLENDTEHVSQLVTFAEALYDFHSQCADVLRGLQETLQEKRSEAESRPRNEFVPKTLLDLNLAGGGGGLNEDGTPSHISSSASPLPSPMRSPAKSMAVTPQRQQQPCCQALYDFEPENPGELAFKENDIITLLNRVDDNWFEGAVNGRTGYFPQSYVQVQVPLPNGN
B2: ccmK2 1-102 H82N (Synechococcus elongatus, UniProt Q03511); chain MPIAVGMIETLGFPAVVEAADAMVKAARVTLVGYEKIGSGRVTVIVRGDVSEVQASVSAGLDSAKRVAGGEVLSHHIIARPNENLEYVLPIRYTEAVEQFRM
B3: ADAR1 127-end 127-1226 D1113H (human, UniProt P55265); sequence looked up; chain SSHFQELSIYQDQEQRILKFLEELGEGKATTAHDLSGKLGTPKKEINRVLYSLAKKGKLQKEAGTPPLWKIAVSTQAWNQHSGVVRPDGHSQGAPNSDPSLEPEDRNSTSVSEDLLEPFIAVSAQAWNQHSGVVRPDSHSQGSPNSDPGLEPEDSNSTSALEDPLEFLDMAEIKEKICDYLFNVSDSSALNLAKNIGLTKARDINAVLIDMERQGDVYRQGTTPPIWHLTDKKRERMQIKRNTNSVPETAPAAIPETKRNAEFLTCNIPTSNASNNMVTTEKVENGQEPVIKLENRQEARPEPARLKPPVHYNGPSKAGYVDFENGQWATDDIPDDLNSIRAAPGEFRAIMEMPSFYSHGLPRCSPYKKLTECQLKNPISGLLEYAQFASQTCEFNMIEQSGPPHEPRFKFQVVINGREFPPAEAGSKKVAKQDAAMKAMTILLEEAKAKDSGKSEESSHYSTEKESEKTAESQTPTPSATSFFSGKSPVTTLLECMHKLGNSCEFRLLSKEGPAHEPKFQYCVAVGAQTFPSVSAPSKKVAKQMAAEEAMKALHGEATNSMASDNQPEGMISESLDNLESMMPNKVRKIGELVRYLNTNPVGGLLEYARSHGFAAEFKLVDQSGPPHEPKFVYQAKVGGRWFPAVCAHSKKQGKQEAADAALRVLIGENEKAERMGFTEVTPVTGASLRRTMLLLSRSPEAQPKTLPLTGSTFHDQIAMLSHRCFNTLTNSFQPSLLGRKILAAIIMKKDSEDMGVVVSLGTGNRCVKGDSLSLKGETVNDCHAEIISRRGFIRFLYSELMKYNSQTAKDSIFEPAKGGEKLQIKKTVSFHLYISTAPCGDGALFDKSCSDRAMESTESRHYPVFENPKQGKLRTKVENGEGTIPVESSDIVPTWDGIRLGERLRTMSCSDKILRWNVLGLQGALLTHFLQPIYLKSVTLGYLFSQGHLTRAICCRVTRDGSAFEDGLRHPFIVNHPKVGRVSIYHSKRQSGKTKETSVNWCLADGYDLEILDGTRGTVDGPRNELSRVSKKNIFLLFKKLCSFRYRRDLLRLSYGEAKKAARDYETAKNYFKKGLKDMGYGNWISKPQEEKNFYLCPV
B4: dnaD N70A (Bacillus subtilis, UniProt P39787); chain GSHMKKQQFIDMQEQGTSTIPNLLLTHYKQLGLNETELILLLKIKMHLEKGSYFPTPNQLQEGMSISVEECTARLRMFIQKGFLFIEECEDQNGIKFEKYSLQPLWGKLYEYIQLAQNQTQERKAEGEQKSLYTIFEEEFARPLSPLECETLAIWQDQDQHDAQLIKHALKEAVLSGKLSFRYIDRILFEWKKNGLKTVEQAKIHSQKFRRVQAKQNEPQKEYKRQVPFYNWLEQ
B5: SOAT1 (Homo sapiens, UniProt P35610); sequence looked up; chain MVGEEKMSLRNRLSKSRENPEEDEDQRNPAKESLETPSNGRIDIKQLIAKKIKLTAEAEELKPFFMKEVGSHFDDFVTNLIEKSASLDNGGCALTTFSVLEGEKNNHRAKDLRAPPEQGKIFIARRSLLDELLEVDHIRTIYHMFIALLILFILSTLVVDYIDEGRLVLEFSLLSYAFGKFPTVVWTWWIMFLSTFSVPYFLFQHWATGYSKSSHPLIRSLFHGFLFMIFQIGVLGFGPTYVVLAYTLPPASRFIIIFEQIRFVMKAHSFVRENVPRVLNSAKEKSSTVPIPTVNQYLYFLFAPTLIYRDSYPRNPTVRWGYVAMKFAQVFGCFFYVYYIFERLCAPLFRNIKQEPFSARVLVLCVFNSILPGVLILFLTFFAFLHCWLNAFAEMLRFGDRMFYKDWWNSTSYSNYYRTWNVVVHDWLYYYAYKDFLWFFSKRFKSAAMLAVFAVSAVVHEYALAVCLSFFYPVLFVLFMFFGMAFNFIVNDSRKKPIWNVLMWTSLFLGNGVLLCFYSQEWYARQHCPLKNPTFLDYVRPRSWTCRYVF
B6: NAC92 12-170 (Arabidopsis thaliana, UniProt Q9FKA0); sequence looked up; chain VEDEEHIDLPPGFRFHPTDEELITHYLKPKVFNTFFSATAIGEVDLNKIEPWDLPWKAKMGEKEWYFFCVRDRKYPTGLRTNRATEAGYWKATGKDKEIFKGKSLVGMKKTLVFYKGRAPKGVKTNWVMHEYRLEGKYCIENLPQTAKNEWVICRVFQK
B7: grpE (Escherichia coli, UniProt P09372); sequence looked up; chain MSSKEQKTPEGQAPEEIIMDQHEEIEAVEPEASAEQVDPRDEKVANLEAQLAEAQTRERDGILRVKAEMENLRRRTELDIEKAHKFALEKFINELLPVIDSLDRALEVADKANPDMSAMVEGIELTLKSMLDVVRKFGVEVIAETNVPLDPNVHQAIAMVESDDVAPGNVLGIMQKGYTLNGRTIRAAMVTVAKAKA
B8: TGFBI 45-632 (Homo sapiens, UniProt Q15582); sequence looked up; chain GPNVCAVQKVIGTNRKYFTNCKQWYQRKICGKSTVISYECCPGYEKVPGEKGCPAALPLSNLYETLGVVGSTTTQLYTDRTEKLRPEMEGPGSFTIFAPSNEAWASLPAEVLDSLVSNVNIELLNALRYHMVGRRVLTDELKHGMTLTSMYQNSNIQIHHYPNGIVTVNCARLLKADHHATNGVVHLIDKVISTITNNIQQIIEIEDTFETLRAAVAASGLNTMLEGNGQYTLLAPTNEAFEKIPSETLNRILGDPEALRDLLNNHILKSAMCAEAIVAGLSVETLEGTTLEVGCSGDMLTINGKAIISNKDILATNGVIHYIDELLIPDSAKTLFELAAESDVSTAIDLFRQAGLGNHLSGSERLTLLAPLNSVFKDGTPPIDAHTRNLLRNHIIKDQLASKYLYHGQTLETLGGKKLRVFVYRNSLCIENSCIAAHDKRGRYGTLFTMDRVLTPPMGTVMDVLKGDNRFSMLVAAIQSAGLTETLNREGVYTVFAPTNEAFRALPPRERSRLLGDAKELANILKYHIGDEILVSGGIGALVRLKSLQGDKLEVSLKNNVVSVNKEPVAEPDIMATNGVVHVITNVL
B9: TBK1 D33A/D135N (Homo sapiens, UniProt Q9UHD2); sequence looked up; chain MQSTSNHLWLLSDILGQGATANVFRGRHKKTGALFAIKVFNNISFLRPVDVQMREFEVLKKLNHKNIVKLFAIEEETTTRHKVLIMEFCPCGSLYTVLEEPSNAYGLPESEFLIVLRDVVGGMNHLRENGIVHRNIKPGNIMRVIGEDGQSVYKLTDFGAARELEDDEQFVSLYGTEEYLHPDMYERAVLRKDHQKKYGATVDLWSIGVTFYHAATGSLPFRPFEGPRRNKEVMYKIITGKPSGAISGVQKAENGPIDWSGDMPVSCSLSRGLQVLLTPVLANILEADQEKCWGFDQFFAETSDILHRMVIHVFSLQQMTAHKIYIHSYNTATIFHELVYKQTKIISSNQELIYEGRRLVLEPGRLAQHFPKTTEENPIFVVSREPLNTIGLIYEKISLPKVHPRYDLDGDASMAKAITGVVCYACRIASTLLLYQELMRKGIRWLIELIKDDYNETVHKKTEVVITLDFCIRNIEKTVKVYEKLMKINLEAAELGEISDIHTKLLRLSSSQGTIETSLQDIDSRLSPGGSLADAWAHQEGTHPKDRNVEKLQVLLNCMTEIYYQFKKDKAERRLAYNEEQIHKFDKQKLYYHATKAMTHFTDECVKKYEAFLNKSEEWIRKMLHLRKQLLSLTNQCFDIEEEVSKYQEYTNELQETLPQKMFTASSGIKHTMTPIYPSSNTLVEMTLGMKKLKEEMEGVVKELAENNHILERFGSLTMDGGLRNVDCL
B10: sso0001 1-202 C188A (Sulfolobus solfataricus, UniProt Q97TX9); chain MITEFLLKKKLEEHLSHVKEENTIYVTDLVRCPRRVRYESEYKELAISQVYAPSAILGDILHLGLESVLKGNFNAETEVETLREINVGGKVYKIKGRADAIIRNDNGKSIVIEIKTSRSDKGLPLIHHKMQLQIYLWLFSAEKGILVYITPDRIAEYEINEPLDEATIVRLAEDTIMLQNSPRFNWEAKYCIFSVICPAKLT
B11: RBKS N57A (Homo sapiens, UniProt Q9H477); sequence looked up; chain MAASGEPQRQWQEEVAAVVVVGSCMTDLVSLTSRLPKTGETIHGHKFFIGFGGKGAAQCVQAARLGAMTSMVCKVGKDSFGNDYIENLKQNDISTEFTYQTKDAATGTASIIVNNEGQNIIVIVAGANLLLNTEDLRAAANVISRAKVMVCQLEITPATSLEALTMARRSGVKTLFNPAPAIADLDPQFYTLSDVFCCNESEAEILTGLTVGSAADAGEAALVLLKRGCQVVIITLGAEGCVVLSQTEPEPKHIPTEKVKAVDTTGAGDSFVGALAFYLAYYPNLSLEDMLNRSNFIAAVSVQAAGTQSSYPYKKDLPLTLF
B12: Pah F80A (Rattus norvegicus, UniProt P04176); sequence looked up; chain MAAVVLENGVLSRKLSDFGQETSYIEDNSNQNGAISLIFSLKEEVGALAKVLRLFEENDINLTHIESRPSRLNKDEYEFATYLDKRTKPVLGSIIKSLRNDIGATVHELSRDKEKNTVPWFPRTIQELDRFANQILSYGAELDADHPGFKDPVYRARRKQFADIAYNYRHGQPIPRVEYTEEEKQTWGTVFRTLKALYKTHACYEHNHIFPLLEKYCGFREDNIPQLEDVSQFLQTCTGFRLRPVAGLLSSRDFLGGLAFRVFHCTQYIRHGSKPMYTPEPDICHELLGHVPLFSDRSFAQFSQEIGLASLGAPDEYIEKLATIYWFTVEFGLCKEGDSIKAYGAGLLSSFGELQYCLSDKPKLLPLELEKTACQEYSVTEFQPLYYVAESFSDAKEKVRTFAATIPRPFSVRYDPYTQRVEVLDNTQQLKILADSINSEVGILCNALQKIKS

UAAUAAUUU (ssRNA) — Kd (U2AF2; sequencing of bound RNA; RNA; motif only): 5.07 µM
B1 (EndoA D265A) — subunits per oligomer (itself; SEC-SAXS): 2
UCUUUUGGU (ssRNA) — Kd (U2AF2; sequencing of bound RNA; RNA; motif only): 0.8 µM
B2 (ccmK2 1-102 H82N) — subunits per oligomer (itself; SEC): 6
B3 (ADAR1 127-end 127-1226 D1113H) — subunits per oligomer (itself; SEC): 2
B4 (dnaD N70A) — subunits per oligomer (itself; SEC): 2
B5 (SOAT1) — subunits per oligomer (itself; native gel): > 4
human UBR4 — log2 fold change (CYB5R4 knockout human cells; PP4 interaction, 3xFLAG-PP4C IP-MS; concentration not given; reference: CYB5R4 KO over parental): 0.25
B6 (NAC92 12-170) — subunits per oligomer (itself; SEC; pH 7.5): 2
B7 (grpE) — subunits per oligomer (itself; cross-linking): 2
B8 (TGFBI 45-632) — subunits per oligomer (itself; SEC): 2
B9 (TBK1 D33A/D135N) — subunits per oligomer (itself; SEC-MALS): 2
B10 (sso0001 1-202 C188A) — subunits per oligomer (itself; SEC): 5 protomers
B11 (RBKS N57A) — subunits per oligomer (itself; mass photometry): 2
B12 (Pah F80A) — subunits per oligomer (itself; SEC): 4

Excerpt of the above:
human UBR4 — log2 fold change (CYB5R4 knockout human cells; PP4 interaction, 3xFLAG-PP4C IP-MS; concentration not given; reference: CYB5R4 KO over parental): 0.25
B6 (NAC92 12-170) — subunits per oligomer (itself; SEC; pH 7.5): 2
